Measured values of several laboratories.
± gives the spread as reported.
LYN isoform B: Tyrosine-protein kinase Lyn, isoform B (LYN, Homo sapiens, UniProt P07948)
Chain of UniProt P07948 (whole entry, looked up): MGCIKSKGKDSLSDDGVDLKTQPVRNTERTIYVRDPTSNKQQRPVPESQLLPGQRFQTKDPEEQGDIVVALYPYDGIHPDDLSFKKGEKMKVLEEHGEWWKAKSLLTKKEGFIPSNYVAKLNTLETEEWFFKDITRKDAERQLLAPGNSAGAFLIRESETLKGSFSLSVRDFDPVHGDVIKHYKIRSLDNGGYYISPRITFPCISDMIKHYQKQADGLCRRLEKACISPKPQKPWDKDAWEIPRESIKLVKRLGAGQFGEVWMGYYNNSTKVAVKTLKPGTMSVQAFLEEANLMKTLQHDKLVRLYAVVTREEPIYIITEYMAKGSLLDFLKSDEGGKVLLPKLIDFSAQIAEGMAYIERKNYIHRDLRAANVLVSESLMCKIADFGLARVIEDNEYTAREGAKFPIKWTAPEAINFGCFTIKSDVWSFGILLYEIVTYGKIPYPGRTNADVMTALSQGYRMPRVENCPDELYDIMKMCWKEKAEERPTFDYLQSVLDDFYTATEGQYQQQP
LYN: Tyrosine-protein kinase Lyn (LYN, Homo sapiens, UniProt P07948)
LYN isoform A: Tyrosine-protein kinase Lyn, isoform A (LYN, Homo sapiens, UniProt P07948)

| Structure (SMILES) | target | test | conditions | scale | endpoint | result |
| --- | --- | --- | --- | --- | --- | --- |
| [2H]c1cc(C)c(NC(=O)c2cnc(Nc3cc(N4CCC(O)CC4)nc(C)n3)s2)c(Cl)c1 | LYN isoform B |  | 0.001 µM |  | inhibition | > 50% |
| C=CC(=O)N1CCC(COCC(=O)N2CCN(c3nc(-c4cnc(N)nc4C(F)F)nc(N4CCOC[C@@H]4C)n3)CC2)CC1 | LYN | KINOMEscan | 1 µM |  | remaining binding | 90% |
| CS(=O)(=O)Nc1cccc(-c2csc(NC(=O)CSc3nc4nccnc4c(=O)n3CCc3ccccc3)n2)c1 | LYN | kinase activity, inhibitor | 10 µM |  | inhibition | 3% |
| CC#CC(=O)N1CCC[C@H]1c1nc(-c2ccc(C(=O)Nc3ccccn3)cc2)c2c(N)nccn12 | LYN isoform B | kinase activity, inhibitor, HotSpot radiometric | 100 nM, with: ATP 10 µM |  | remaining activity | 99.4 ± 1.8% |
| COc1cc2ncnc(Nc3ccc(Oc4ccccc4)cc3C)c2cc1OC | LYN | kinase activity, inhibitor | 1 µM |  | inhibition | 90% |
| CC/C(=N\NC(=O)NCc1cccc(O)c1)c1ccc(O)c(C)c1O | LYN isoform A | kinase activity | 0.1 µM |  | inhibition | 0.4% |
| COc1ccc(F)cc1C(=O)NCc1ccc(-c2nn([C@@H](C)C(F)(F)F)c(N)c2C(N)=O)cc1 | LYN | kinase activity, inhibitor, HotSpot radiometric | 100 nM, with: ATP 10 µM |  | remaining activity | 87.2 ± 0.1% |
| [2H]c1cc(C)c(NC(=O)c2cnc(Nc3cc(N4CCCCC4)nc(C)n3)s2)c(Cl)c1 | LYN isoform A |  | 0.0001 µM |  | inhibition | > 50% |
| C=CC(=O)N1CCC[C@@H](n2nc(-c3ccc(Oc4ccccc4)cc3)c3c(N)ncnc32)C1 | LYN isoform B | kinase activity, inhibitor, HotSpot radiometric | 100 nM, with: ATP 10 µM |  | remaining activity | 52.1 ± 0.4% |
| COc1cc(-c2cncc3c2CN(C)Cc2cc(N4CCNCC4)ccc2-3)cc(OC)c1OC | LYN | kinase activity | 1 µM, human enzyme, with: ATP 10 µM | reference: DMSO control | remaining activity | 41% |

Excerpt of the above:
| Structure (SMILES) | target | test | conditions | scale | endpoint | result |
| --- | --- | --- | --- | --- | --- | --- |
| COc1cc2ncnc(Nc3ccc(Oc4ccccc4)cc3C)c2cc1OC | LYN | kinase activity, inhibitor | 1 µM |  | inhibition | 90% |
